Assay results of several laboratories.
Every numbered part comes from another study and shows a few of its results, in no order. Positions count from the first letter of the parent shown.

Sample 1 — technique: RNA Bind-n-Seq; molecule type: RNA; medium: in vitro; tested at: 365 nM; reference: no-protein control; reading: higher = stronger binding
Target: RNA binding protein fox-1 homolog 2, RRM domain, GST-SBP tag (RBFOX2, Homo sapiens, UniProt O43251-10, residues 100-194)
Notes: natural RNA segment, single round, ends assumed
Shared flanks, not repeated: GGGAGUUCUACAGUCCGACGAUC … UGGAAUUCUCGGGUGCCAA
Residues (chain): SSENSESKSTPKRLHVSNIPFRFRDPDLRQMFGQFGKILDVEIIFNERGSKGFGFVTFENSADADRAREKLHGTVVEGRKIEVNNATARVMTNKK
| Sequence | RBNS enrichment (R) |
| --- | --- |
| AAUUCUUUUAACAGCCUGUCCUCCCGGCAUCAGGAGUCAUUGAACAAUCAUGGAUUGUUGUGUUUGGGAUUUUUUUUUUUUUGGCUUUGUUUUUGGUUUUUGUGUGUGUG | 1.12 |
| UUUAAAAAGUGACUGUUAGAACUUUUUUAGCUCUGAGUAGUGGUCCCUUUUUAAACUCCUGGAAACAUUUUUGUUACCAAAUAAAUCAUGUUUUAUGGUACUCAGCCAUC | 0.83 |
| AGAGGCAGGAAGAGUUUUGAUUCUAUCCUUUUUUACUAAACAGUUUUAUUAUGACACUAGAUACAGUAAAUUUUUAGAAAAAAAUACCAUUUACAGUAUUAUUGUGAACC | 0.519 |
| UCAUGCAUUUAGAUUUAUAUUUUUGCCAGAAAAUACAAGGUUAUAAUAAAACUAAGAACUACCAUUUUUUCUUUUCUUUUAACCUGUUCUUUUUUUGAGAAUAGUUUCUA | 1.19 |
| AGGAAAGGACAUGGGUAGCAAUUCUACCCAGAGCCUUCUCCUGCCUACAUUCCCUGGCCUGGCUCUCCUGUAGCUCUCCUGGGGUUCUGGGAGUUCCCUGAACAUCUGUG | 0.314 |
| CACUUGAUUCCAAGUGUGGUUGAAUUGUCUGGAGCACUGGGACUUUUUUUCUCUUUUCCUUGAUGGACCAACAGUGCAAAUGCAAUCUCGCCAUUUAACUUUCAGGUCGA | 0.351 |
| UUUGCAUUCUAGUUUGAAUAGUUUGUAUUGAAAUUGGAUUCCUAUCUUGUGUAUGUUUUUGGUGCGUAAAAGGGAAAAAUUGGUGUCAUUACUUUUGAAAUUUGCAGGAC | 2.12 |
| GGCUGCUCAAUCGACACCCCGAGUUCUCAUGACUGGGAAGAUAGUUUUCUUCAGGUGUCAAUGGCGUUAGACUCCCAGGAAGACUAGCCCUGCCCACAGGGCCACCUGUU | 0.404 |
| CACCGCUGUGUCGCCAGUGUGCUCACUAACAAGCCCCGCCACCUAACCCAGUGUGUUUUUACUAAGUCUCAGCCCUUUCCCCCACCCCUUUUUCUUCUCUCUUCCUUUUA | 0.713 |
| GCUUCUACCGUUAGGCGCUGCAGGCUUGAAGUGGCAAGGCCCUGCAUCUCAAGCACUCAGAGCUCUGUGAGCUUGCCUACUGUGCGCAGGAUCUCCCCAAGUAUGUCCUA | 0.619 |
| AUCUGGGAAGCCGGGGCACCCCCGUUUUGUUUCUCUGGGCGGUUGUGGCAGCUGAAGGCGGACGUUGUUUCCUAACCAUAGGUGGAACGAGGAGACGGGAGCGAGUGGGC | 0.584 |
| GUGGACCCAGGGACAGACAUUCAAAGGGACGCCAGCCAUCCUUAGUGACAGGGGCCCCAACUUAGCAUCCCUUCCCUUCCGUUAGGAAGGAGAUGACCGGAAGCAACCCC | 0.233 |

Sample 2 — technique: protein-binding microarray; molecule type: double-stranded DNA, one strand shown; medium: in vitro; tested at: 250 nM; notes: 60-bp whole probe; added: salmon DNA 0.4 mg/ml; reference: random background probes; reading: higher = stronger binding; shared flanks, not repeated: GCCTAGCAC … GTCTTGATTCGCTTGACGCTGCTG
Target: Interferon regulatory factor 5, full length, phosphomimetic (IRF5, Homo sapiens, UniProt Q13568-2, residues 1-514, K96S/S451D/S453D/S456D/S462D)
| Sequence | log fluorescence |
| --- | --- |
| TGTGTCTGGAATTTTTAGAAGTGCTAG | -0.0285 z-score |
| GACGGTCTCGCACTGGGGACGTGCTAG | -0.261 z-score |
| GACGGACTGGACTAGCGGGACGTGCTA | -0.871 z-score |
| GACGGTTTCTTTATCCTGACGTGCTAG | 1.05 z-score |
| GACGATTTCAGTCTCGAGATGTGCTAG | 1.27 z-score |
| GACGGTATTCTTTTCCTGACGTGCTAG | 0.257 z-score |
| GTGTACATCTCTCTTAAATAGTGCTAG | 0.162 z-score |
| TCATGGTTCCCATTCCAACTGTGCTAG | -0.0616 z-score |
| GTCATTCTCAACCCTGGTGCTGTGCTA | -0.0313 z-score |
| GACGGTATAGGGTTTCGGGACGTGCTA | 1.37 z-score |
| GACAATTTCAGTTTCGAGACGTGCTAG | 8.09 z-score |
| GACTATTTCAGACTGGAGACGTGCTAG | 0.0594 z-score |
| TTAGGACTGCTTTTCCTTCAGTGCTAG | 0.00913 z-score |
| GACGGTTTCGACACTGGGGATGTGCTA | 4.68 z-score |
| TTAGGTCTCAGTATCGATTAGTGCTAG | 6.39 z-score |
| TTAGGTCTCCTAGTGCTTTAGTGCTAG | -0.625 z-score |
| GACGATTTCAGTATCGAGACGTGCTAG | 3.74 z-score |
| TTAGGTTTCGGGACTGGGATAGTGCTA | 6.39 z-score |
| TCAAGTTTCCATTTTCAACTGTGCTAG | 2.33 z-score |
| CTTGTTCTTAGCTTGGGTCTGTGCTAG | 0.0457 z-score |

Sample 3 — target: CCND2, cyclin fold, Cln2 fusion (human); technique: yeast growth competition, sequencing; medium: yeast; notes: weak parent motif; reference: not given; reading: higher = stronger binding
Starting sequence: WEE1 docking peptide (human); HKTFRKLRLFDTP
| Substitution | normalised enrichment score |
| --- | --- |
| D11K | 0.143 |
| F10N | 0.0453 |
| R5K L9F | -0.978 |
| L9D | 0.12 |
| F10W | -0.0446 |
| T12H | 0.602 |
| K2P | 0.0697 |
| K2T | 0.198 |
| R5H | 0.762 |
| P13A | -0.232 |
| L7V | 0.0777 |
| F10P | 0.405 |
| K2Y | -0.101 |
| L7D | -0.251 |
| R8H | -0.0102 |
| T12G | 0.548 |

Sample 4 — technique: universal PBM; molecule type: double-stranded DNA, one strand shown; medium: in vitro; tested at: 600 nM; reading: higher = stronger binding
Target: Sal-like protein 4, full length isoform A (SALL4, Homo sapiens, UniProt Q9UJQ4, residues 1-1053)
Chain of UniProt Q9UJQ4 (whole entry, looked up): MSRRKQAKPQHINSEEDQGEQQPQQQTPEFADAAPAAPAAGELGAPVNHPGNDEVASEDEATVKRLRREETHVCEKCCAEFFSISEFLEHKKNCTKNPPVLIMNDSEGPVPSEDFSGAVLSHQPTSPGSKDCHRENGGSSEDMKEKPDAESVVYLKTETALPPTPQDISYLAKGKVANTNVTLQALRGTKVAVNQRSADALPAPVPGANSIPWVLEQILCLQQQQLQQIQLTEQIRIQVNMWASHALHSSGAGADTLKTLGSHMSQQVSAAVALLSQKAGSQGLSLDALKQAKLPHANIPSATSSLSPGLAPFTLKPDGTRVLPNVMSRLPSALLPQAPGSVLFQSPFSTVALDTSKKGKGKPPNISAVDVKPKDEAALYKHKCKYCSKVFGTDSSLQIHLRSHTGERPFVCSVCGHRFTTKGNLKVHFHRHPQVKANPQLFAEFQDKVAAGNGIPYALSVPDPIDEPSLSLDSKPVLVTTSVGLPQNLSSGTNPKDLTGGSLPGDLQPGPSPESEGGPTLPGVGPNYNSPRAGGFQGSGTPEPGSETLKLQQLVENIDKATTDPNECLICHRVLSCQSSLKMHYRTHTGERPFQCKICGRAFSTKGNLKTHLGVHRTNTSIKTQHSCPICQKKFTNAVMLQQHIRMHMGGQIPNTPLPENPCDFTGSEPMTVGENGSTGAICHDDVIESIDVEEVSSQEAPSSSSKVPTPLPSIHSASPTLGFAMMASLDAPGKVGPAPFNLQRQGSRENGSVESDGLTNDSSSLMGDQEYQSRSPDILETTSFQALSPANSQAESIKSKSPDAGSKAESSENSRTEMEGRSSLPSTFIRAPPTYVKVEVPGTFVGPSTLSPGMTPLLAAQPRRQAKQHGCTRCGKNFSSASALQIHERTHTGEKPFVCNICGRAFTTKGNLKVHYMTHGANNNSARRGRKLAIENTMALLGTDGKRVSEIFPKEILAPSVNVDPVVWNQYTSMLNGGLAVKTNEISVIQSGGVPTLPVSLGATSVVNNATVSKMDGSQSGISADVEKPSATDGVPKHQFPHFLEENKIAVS
Notes: 8-mer, flanks averaged, mean of replicates
| Sequence | E-score |
| --- | --- |
| ATTCTCCC | -0.081 |
| CCATGTAG | 0.00281 |
| CTCTTAAC | 0.00285 |
| GCAGGAAC | -0.107 |
| GCGGCGAC | -0.211 |
| GCCCAGCA | -0.309 |
| AAGCGATA | 0.0731 |
| CATTCCAA | 0.0696 |
| ATTCTCAG | 0.165 |
| CAGTTCAC | 0.0166 |
| AACCAACC | -0.149 |
| AAGAACGG | -0.174 |
| TGTACGAA | 0.207 |
| CCCAACCA | -0.0898 |
| TAACCGCA | 0.052 |
| TGTAACAA | 0.192 |
| CCTCGCAA | -0.0468 |
| AATAAATT | 0.406 |
| CAGCGTCC | -0.178 |
| ACCCCGGA | -0.188 |
| GGACGGTA | 0.0663 |
| ATCTTGTG | 0.0333 |
| CCGTGGCG | -0.328 |
| ATGCACTC | 0.000655 |
| CCTCCAAG | -0.0787 |

Sample 5 — target: MAFK, bZIP domain (human); technique: DHFR protein complementation; medium: yeast; reference: wild-type JUN-FOS pair; reading: higher = stronger binding
Notes: single substitutions, most at no-binding floor
Starting sequence: JUN, bZIP domain (human); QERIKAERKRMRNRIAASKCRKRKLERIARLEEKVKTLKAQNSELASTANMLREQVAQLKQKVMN; partner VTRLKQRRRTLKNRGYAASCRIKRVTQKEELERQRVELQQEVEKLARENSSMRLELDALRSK
| Substitution | binding fitness |
| --- | --- |
| R30P | -1.46 natural log |
| E33I | -1.43 natural log |
| L31A | -1.35 natural log |
| S47A | -1.44 natural log |
| L52K | -1.54 natural log |
| A40N | -1.43 natural log |
| E54C | -1.56 natural log |
| V35A | -1.5 natural log |
| Q55S | -1.53 natural log |
| A40D | -1.48 natural log |
| A49V | -1.43 natural log |
| K36T | -1.45 natural log |
| A40C | -1.54 natural log |
| E32Y | -1.49 natural log |
| K36G | -1.48 natural log |

Sample 6 — technique: protein binding microarray; molecule type: double-stranded DNA, one strand shown; medium: in vitro; tested at: not given; reference: not given; reading: higher = stronger binding
Target: Histone acetyltransferase KAT6A, winged helix 1, GST fusion (KAT6A, Homo sapiens, UniProt Q92794, residues 1-85)
Notes: 8-mer, flanks averaged, mean of 2 arrays, mostly near background
Construct (chain): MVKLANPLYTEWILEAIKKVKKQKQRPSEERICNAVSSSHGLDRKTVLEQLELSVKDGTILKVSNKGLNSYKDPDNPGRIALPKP
| Sequence | E-score |
| --- | --- |
| ATGGCTCC | -0.0811 |
| AAAATAGA | -0.187 |
| GAATATAA | -0.115 |
| GCGGCCAA | 0.213 |
| AGATTAAA | -0.0596 |
| AGTGGCTC | -0.0207 |
| CACCAGTC | -0.144 |
| GAACGTAC | -0.0125 |
| ATTGTGTG | -0.179 |
| AATGGCCC | -0.00724 |
| TCTGGCCA | -0.289 |
| GCAAGCCA | -0.129 |
| ACGACATA | -0.138 |
| CCAAGAAG | -0.124 |
| CCCCGGTC | 0.219 |
| CAGGACTA | -0.174 |
| ATCCGGGC | 0.248 |
| AAGGTATT | 0.000705 |
| ACTACAGT | -0.158 |
| TAGACCAA | -0.148 |
| GGCCTGTA | 0.022 |
| ATGCTCCG | 0.155 |
| CGTCGCGA | 0.337 |
| ACACACTC | -0.152 |
| GTTAGCAA | -0.14 |

Further values, each from its own experiment
| Substance | target | assay | system | setting | how to read | quantity | result |
| --- | --- | --- | --- | --- | --- | --- | --- |
| PhoQ, residues 284 288 289 292 302 303 NLMGRA | PhoP, residues 12 14 15 18 19 TPLRH (Escherichia coli, UniProt P23836) | Sort-seq, refers to: YFP reporter | E. coli | PhoQ-PhoP variant library, added: 10 µM Mg2+ | reference: high Mg2+ state, higher = stronger signaling | fold induction | 1.27 |

A few entries again (sample 6):
| Sequence | E-score |
| --- | --- |
| GCGGCCAA | 0.213 |
| AGATTAAA | -0.0596 |
| AGTGGCTC | -0.0207 |
| CACCAGTC | -0.144 |
| GAACGTAC | -0.0125 |
| ATTGTGTG | -0.179 |
| AATGGCCC | -0.00724 |
| TCTGGCCA | -0.289 |
| GCAAGCCA | -0.129 |
| ACGACATA | -0.138 |
| CCAAGAAG | -0.124 |
| CCCCGGTC | 0.219 |
| CAGGACTA | -0.174 |
| ATCCGGGC | 0.248 |
| AAGGTATT | 0.000705 |
| ACTACAGT | -0.158 |
| TAGACCAA | -0.148 |
| GGCCTGTA | 0.022 |
